Results of several laboratories.
Compare with care: the assays were run in different laboratories. Values joined by “and” are separate records of one study, mostly repeats; a detail may differ. ± marks the error that the study gave.

CC[C@H](C)[C@H](NC(=O)[C@H](CCCCN)NC(=O)CNC(=O)[C@H](CC(C)C)NC(=O)[C@H](Cc1ccccc1)NC(=O)[C@H](CCCCN)NC(=O)[C@H](CO)NC(=O)[C@H](Cc1ccccc1)NC(=O)[C@H](Cc1c[nH]c2ccccc12)NC(=O)[C@H](CCC(N)=O)NC(=O)[C@@H](NC(=O)[C@H](Cc1ccccc1)NC(=O)CCCCCNC(=O)CN1CCN(CC(=O)O)CCN(CC(=O)O)CCN(CC(=O)O)CC1)C(C)C)C(=O)N[C@@H](CCC(=O)O)C(=O)N1CCC[C@H]1C(=O)N[C@H](CC(=O)O)C(=O)N[C@H](C(=O)N[C@@H](CO)C(=O)N[C@@H](CCC(N)=O)C(=O)N[C@H](C(=O)N[C@@H](CCC(N)=O)C(=O)N[C@@H](CC(=O)O)C(=O)N1CCC[C@H]1C(=O)N[C@@H](CC(N)=O)C(=O)N[C@@H](CC(=O)O)C(=O)N[C@@H](CCC(N)=O)C(=O)N[C@@H](Cc1ccc(O)cc1)C(=O)N[C@@H](CCC(=O)O)C(=O)N1CCC[C@H]1C(=O)N[C@@H](Cc1ccccc1)C(=O)O)C(C)C)C(C)C [copper-64 labelled] gave a tissue uptake of 0.21 ± 0.03 %ID/g (C57BL/6 mice, male, MC-38 tumour-bearing, muscle; 2 h, checkpoint inhibitor-treated).
CCCCCCCCCCCCCCCC(=O)N[C@@H](CCC(=O)NCCOCCOCCC(=O)NCCOCCOCCC(=O)NCCCC[C@H](NC(=O)[C@H](CC(=O)O)NC(=O)[C@H](CC(C)C)NC(=O)[C@H](Cc1ccc(O)cc1)NC(=O)[C@H](CCCCN)NC(=O)[C@H](CO)NC(=O)[C@H](Cc1ccc(O)cc1)NC(=O)[C@H](CC(=O)O)NC(=O)[C@H](CO)NC(=O)[C@@H](NC(=O)[C@H](Cc1ccccc1)NC(=O)[C@@H](NC(=O)CNC(=O)[C@H](CCC(N)=O)NC(=O)[C@@H](CO)NC(=O)[C@@H](N)Cc1c[nH]cn1)[C@@H](C)O)[C@@H](C)O)C(=O)N[C@@H](CCCNC(=N)N)C(=O)N[C@@H](CCCNC(=N)N)C(=O)N[C@@H](C)C(=O)N[C@@H](CCC(N)=O)C(=O)N[C@@H](CC(=O)O)C(=O)N[C@@H](Cc1ccccc1)C(=O)N[C@H](C(=O)N[C@@H](CCC(N)=O)C(=O)N[C@@H](Cc1c[nH]c2ccccc12)C(=O)N[C@@H](CC(C)C)C(=O)N[C@@H](CC(C)C)C(=O)N[C@@H](CC(N)=O)C(=O)N[C@H](C(=O)NCC(=O)NCC(=O)N1CCC[C@H]1C(=O)N[C@@H](CO)C(=O)N[C@@H](CO)C(=O)NCC(=O)N[C@@H](C)C(=O)N1CCC[C@H]1C(=O)N1CCC[C@H]1C(=O)N1CCC[C@H]1C(=O)N[C@@H](CO)C(N)=O)[C@@H](C)O)C(C)C)C(=O)O — result for “serum enzyme activity”: 53.3 ± 32.2 U/L (refers to: ALT; rhesus monkey, male; subcutaneous, 20 µg/kg once daily, 28 days).
CC(CCC(=O)NCC(=O)O)C1CCC2C3C(O)CC4CC(OC5OC(C(=O)O)C(O)C(O)C5O)CCC4(C)C3CCC12C (stereo not drawn) gave a plasma concentration of 69 ng/mL (human men; dose not given, SLCO1B1 *5/*35).
The AUC(0.5-24 h) of COc1cccc2c1C(=O)c1c(O)c3c(c(O)c1C2=O)CC(O)(C(=O)CO)CC3OC1CC(NC(=O)OC2C=CCCC(C)(C(=O)NCC(=O)O)CC2)C(O)C(C)O1 (stereo not drawn) is reported as 1520 ng·h/mL (male Sprague Dawley rat, plasma; intravenous, 21.5 mg/kg/day doxorubicin equivalents, average over days).
O=C1NC2(CC2)COc2ncc(F)cc2[C@H]2COCCN2c2ccn3ncc1c3n2 has a reticulocytes of 1.61 ± 0.59% (Sprague-Dawley rat, female, blood; oral, 5 mg/kg/day, end of treatment, 4-week repeated-dose toxicity; relative to: red blood cells).
CC[C@H](C)[C@H](NC(=O)[C@H](Cc1ccc(O)cc1)NC(=O)[C@@H](NC(=O)[C@H](CCCNC(=N)N)NC(=O)[C@@H](N)CC(=O)O)C(C)C)C(=O)N[C@@H](Cc1c[nH]cn1)C(=O)N1CCC[C@H]1C(=O)O has an AUC of 0.914 ± 0.204 µg·h/mL (Beagle dog, plasma; sc, 10 mg/kg/day, day 0).
For CCCCC/C=C\CCCO[Si](CCCCN(C)C)(OCCC/C=C\CCCCC)OCCC/C=C\CCCCC, tolerability read “not toxic” (refers to: IL-6, MCP-1, ALT, AST; BALB/c mice; intravenous, 6 mg/kg siRNA, 6 h cytokines, 24 h ALT/AST, LNP formulation).
With CC(C)=CCC/C(C)=C/CCn1cc(CC(P(=O)(O)O)P(=O)(O)O)nn1 the biliary excretion was 1.27% (mouse CD-1; intravenous, 0.3 mg/kg, 8 h; relative to: dose).
The tracer uptake of Cc1ccccc1-c1ccc(-c2nc(-c3ccc(CN(C)CCCC(=O)O)c([18F])c3)no2)cc1C(F)(F)F is reported as 2.09 %ID/g (rat, kidney; 5 min).
Under “chronic toxic concentration”, CC(C)C[C@H](NC(=O)[C@H](Cc1ccc(O)cc1)NC(=O)CNC(=O)CNC(=O)CNC(=O)[C@H](Cc1c[nH]cn1)NC(=O)[C@H](Cc1c[nH]cn1)NC(=O)[C@@H](NC(=O)CNC(=O)[C@H](Cc1c[nH]cn1)NC(=O)[C@H](Cc1ccccc1)NC(=O)[C@H](CC(C)C)NC(=O)[C@H](CC(C)C)NC(=O)[C@H](CCCNC(=N)N)NC(=O)[C@H](Cc1ccccc1)NC(=O)[C@@H](N)Cc1ccccc1)C(C)C)C(=O)N[C@@H](CC(N)=O)C(=O)N[C@@H](C)C(=O)N[C@@H](C)C(N)=O is recorded as 25 µM (zebrafish embryos 4 hpf, E3 medium; 24 h).
CN[C@H](CC(C)C)C(=O)N[C@H]1C(=O)N[C@@H](CC(N)=O)C(=O)N[C@H]2C(=O)N[C@H]3C(=O)N[C@H](C(=O)N[C@H](C(=O)O)c4cc(O)cc(O)c4-c4cc3ccc4O)[C@H](O)c3ccc(c(Cl)c3)Oc3cc2cc(c3O[C@@H]2O[C@H](CO)[C@@H](O)[C@H](O)[C@H]2O[C@H]2C[C@](C)(NCc3ccc(-c4ccc(Cl)cc4)cc3)[C@H](O)[C@H](C)O2)Oc2ccc(cc2Cl)[C@H]1O gave an AUC of 575 µg·h/mL (mouse, plasma; intravenous, 75 mg/kg).
With CC(C)[C@@H]1NC(=O)CNC(=O)[C@H](CC(N)=O)NC(=O)[C@H](CCCNC(=N)N)NC(=O)[C@H](Cc2ccc(O)cc2)NC(=O)[C@H](C(C)C)NC(=O)[C@@H](NC(=O)[C@@H](NC(=O)[C@H](CC(N)=O)NC(=O)[C@H](Cc2c[nH]c3ccccc23)NC(=O)[C@H](C)NC(=O)[C@H](Cc2ccccc2)NC(=O)CNC(=O)[C@H](CCCCN)NC(=O)[C@H](Cc2ccccc2)NC(=O)[C@H](Cc2ccccc2)NC(=O)[C@H](CCCCN)NC(=O)OCC2c3ccccc3-c3ccccc32)C(C)C)CSSC[C@@H](C(=O)N[C@@H](Cc2c[nH]cn2)C(=O)N[C@@H](CCCNC(=N)N)C(=O)N[C@@H](CCCNC(=N)N)C(=O)N[C@@H](C)C(=O)N[C@@H](CC(N)=O)C(N)=O)NC(=O)[C@H](C(C)C)NC(=O)[C@H](CCCNC(=N)N)NC1=O the creatinine was 87.2 ± 1.32 µmol/L (ICR mice, serum; intraperitoneal, 5 mg/kg, day 5).
COc1cnc2cccc(N3CCc4c(cc(Cn5ccnc5)cc4-c4cn(C)nc4C(F)(F)F)C3=O)c2c1 has a body weight of 22.8 g and 23.4 g and 24.2 g and 22.6 g and 21.3 g (BALB/c nude mice, MV4-11 xenograft; intraperitoneal, 50 mg/kg, day 17).
Under “chronic toxic concentration”, CC[C@H](C)[C@H](NC(=O)[C@H](CCCCN)NC(=O)CNC(=O)[C@@H](NC(=O)[C@H](Cc1c[nH]cn1)NC(=O)[C@H](Cc1c[nH]cn1)NC(=O)[C@@H](NC(=O)CNC(=O)[C@H](Cc1c[nH]cn1)NC(=O)[C@H](Cc1ccccc1)NC(=O)[C@H](CC(C)C)NC(=O)[C@H](CC(C)C)NC(=O)[C@H](CCCNC(=N)N)NC(=O)[C@H](Cc1ccccc1)NC(=O)[C@@H](N)Cc1ccccc1)C(C)C)C(C)C)C(=O)N[C@@H](CCCCN)C(=O)N1CCC[C@H]1C(=O)N[C@@H](CCCNC(=N)N)C(=O)N[C@@H](C)C(N)=O is recorded as 25 µM (zebrafish embryos 28 hpf, E3 medium; 24 h).
With Cc1ccc(C(C)C)cc1.F[P-](F)(F)(F)(F)F.[Cl][Os+]1[N]2C=CC=c3ccc4c(c32)[N]1C=CC=4 the logP was 0.29 ± 0.01 (shake-flask, ICP-MS).
With CN1CCCCC1C(=O)NC(Cc1ccc(-c2ccccc2)cc1)B(O)O (stereo not drawn) the AUC(0-t) was 835 nM·h (male Sprague-Dawley rats, plasma; oral, 1 mg/kg, 24 h, citrate ester).
The pKa of COC(=O)[C@H]1[C@@H](c2ccc(Cl)c(Cl)c2)C[C@@H]2CC[C@H]1N2CCOc1c2ccccc2cc2ccccc12 is reported as 5.3 (fluorescence titration; buffer with 10% DMSO; 1 µM).
With CCCCCCCCCCCCCC(=O)N[C@@H](CCCNC(=N)N)C(=O)N[C@@H](Cc1c[nH]c2ccccc12)C(=O)N[C@@H](CCCCN)C(=O)N[C@H](C(=O)N[C@@H](Cc1ccccc1)C(=O)N[C@@H](CCCCN)C(=O)N[C@@H](CCCCN)C(=O)N[C@H](C(=O)N[C@@H](CCC(=O)O)C(=O)N[C@@H](CCCCN)C(=O)N[C@H](C(=O)NCC(=O)N[C@@H](CCC(N)=O)C(=O)N[C@@H](CC(N)=O)C(=O)N[C@H](C(=O)N[C@@H](CCCNC(=N)N)C(=O)N[C@@H](CC(=O)O)C(=O)NCC(=O)N[C@H](C(=O)N[C@H](C(=O)N[C@@H](CCCCN)C(=O)N[C@@H](C)C(=O)NCC(=O)N1CCC[C@H]1C(=O)N[C@@H](C)C(=O)N[C@H](C(=O)N[C@@H](C)C(=O)N[C@H](C(=O)N[C@H](C(=O)NCC(=O)N[C@@H](CCC(N)=O)C(=O)N[C@@H](C)C(=O)N[C@@H](C)C(=O)N[C@H](C(=O)N[C@H](C(N)=O)[C@@H](C)CC)[C@@H](C)O)C(C)C)C(C)C)C(C)C)C(C)C)[C@@H](C)CC)[C@@H](C)CC)C(C)C)[C@@H](C)CC)[C@@H](C)CC the helical content was 53.5% (CD spectroscopy; 50% TFE in water; room temperature).

Excerpt of the above:
COc1cnc2cccc(N3CCc4c(cc(Cn5ccnc5)cc4-c4cn(C)nc4C(F)(F)F)C3=O)c2c1 has a body weight of 22.8 g and 23.4 g and 24.2 g and 22.6 g and 21.3 g (BALB/c nude mice, MV4-11 xenograft; intraperitoneal, 50 mg/kg, day 17).
